# Results of several laboratories.
# Protocols differ between the studies behind these lines.
# Target: 5-hydroxytryptamine receptor 7 (HTR7, Homo sapiens, UniProt P34969)
# Chain of UniProt P34969 (whole entry, looked up): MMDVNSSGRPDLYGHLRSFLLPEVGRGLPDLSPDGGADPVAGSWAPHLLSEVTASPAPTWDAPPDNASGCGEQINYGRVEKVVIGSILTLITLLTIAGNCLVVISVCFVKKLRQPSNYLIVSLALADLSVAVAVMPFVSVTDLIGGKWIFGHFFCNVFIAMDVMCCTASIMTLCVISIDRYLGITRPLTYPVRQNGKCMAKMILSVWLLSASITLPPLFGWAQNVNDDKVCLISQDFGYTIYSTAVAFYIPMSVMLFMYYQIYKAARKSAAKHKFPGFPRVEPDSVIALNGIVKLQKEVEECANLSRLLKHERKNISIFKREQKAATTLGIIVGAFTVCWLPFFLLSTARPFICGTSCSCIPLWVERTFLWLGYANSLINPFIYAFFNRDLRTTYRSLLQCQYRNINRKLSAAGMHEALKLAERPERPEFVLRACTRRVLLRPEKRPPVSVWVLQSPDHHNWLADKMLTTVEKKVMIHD
Structure (SMILES),effect on,method,tested at,with,inhibition [%]
CC(C)Cn1c(SCC(=O)N2CCc3ccccc3C2)nc2cc(Cl)ccc2c1=O,ligand displacement,radioligand,10 µM,,6
CC1Cc2ccccc2N1C(=O)CN1CCN(c2ccccc2)CC1 (stereo not shown),radioligand binding,,concentration not given,[3H]LSD,58
COc1ccc(C(=O)Nc2c(-c3cccs3)nc3ccccn23)cc1,ligand displacement,radioligand,10 µM,,< 50
Cc1ccnc(OC[C@H]2CN(CCN3CCc4ccccc43)CCO2)c1,radioligand binding,,concentration not given,[3H]LSD,45.6
CO[C@@H](C)c1c(NC(=O)Nc2cnc(-n3nccn3)c(C(F)(F)F)c2)cnc2sc(C)nc12,ligand displacement,radioligand,10 µM,,0.9
O=C1c2sc(-c3ccc(N4CCC(F)C4)nc3F)nc2CCN1c1cccnc1 (stereo not shown),ligand displacement,radioligand,1 µM,,-13
C[Si](C)(C)C[C@H](CN)CC(=O)O,ligand displacement,radioligand,250 µM,,1
c1ccc(OC[C@H]2CN(CCN3CCc4ccccc43)CCO2)nc1,radioligand binding,,concentration not given,[3H]LSD,28.1
C[Si]1(C[C@H](CN)CC(=O)O)CCCC1,ligand displacement,radioligand,70 µM,,4
CCC(=O)N(C)c1ccc(Cl)c(Cl)c1,ligand displacement,radioligand,10 µM,,< 10

# Excerpt of the above:
Structure (SMILES),effect on,method,tested at,with,inhibition [%]
CCC(=O)N(C)c1ccc(Cl)c(Cl)c1,ligand displacement,radioligand,10 µM,,< 10
